Measurements gathered from unrelated publications.
A part holds a random share of what one study measured. Substitutions count along the parent as printed.

Block 1 — method: protein binding microarray; form: double-stranded DNA, one strand shown; medium: in vitro; tested at: not given; relative to: not given; reading: higher = stronger binding
Target: Histone acetyltransferase KAT6A, both winged helices, GST fusion (KAT6A, Homo sapiens, UniProt Q92794, residues 1-181)
Setting: 8-mer, flanks averaged, mean of 2 arrays, mostly near background
Construct (chain): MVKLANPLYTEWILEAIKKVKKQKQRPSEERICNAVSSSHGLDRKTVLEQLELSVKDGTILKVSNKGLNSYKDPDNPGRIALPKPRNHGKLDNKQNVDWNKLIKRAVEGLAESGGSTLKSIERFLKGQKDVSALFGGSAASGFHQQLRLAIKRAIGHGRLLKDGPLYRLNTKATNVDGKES
The E-score of `GTTGAGAA` is reported as -0.073.
The E-score of `AGGTTGGA` is reported as -0.0224.
For `GAACTTGC`, the E-score was -0.112.
`ACCTACCC` has an E-score of -0.114.
`CGCGTCCA` has an E-score of 0.34.
`AGATCTCC` has an E-score of -0.162.
`AGTTAGTA` gave an E-score of -0.0653.
`CAGATGTA` gave an E-score of -0.0844.
`CCTGGTTC` gave an E-score of -0.077.
`AATTATGC` has an E-score of 0.0496.
The E-score of `CGAATACG` is reported as 0.153.
`GAAGATGC` has an E-score of -0.0654.
For `GAGCTTGC`, the E-score was -0.0892.
For `CTGTTATC`, the E-score was -0.138.
With `CGCTCAGA` the E-score was 0.0815.
For `TCTAATAA`, the E-score was -0.00641.
With `GCGGCAGC` the E-score was 0.285.
`AGTACACA` has an E-score of 0.0363.
`GAGTGGGA` has an E-score of -0.17.
With `ATCAGGTA` the E-score was -0.147.
The E-score of `ACTTCAAG` is reported as -0.123.
For `GGTATGAA`, the E-score was -0.0516.
With `AATATCCA` the E-score was -0.00454.
`CCAGTTTC` gave an E-score of -0.0977.
For `TCACTGAA`, the E-score was -0.108.

Block 2 — target: CCNE2, cyclin fold, Cln2 fusion (human); method: yeast growth competition, sequencing; medium: yeast; setting: strong parent motif; relative to: not given; reading: higher = stronger binding
Parent: E2F1 docking peptide (human); PPVKRRLDLETDH
`T11N` — result for “normalised enrichment score”: 0.893.
Under “normalised enrichment score”, `V3S` is recorded as 0.565.
`E10C` — result for “normalised enrichment score”: 1.82.
`D12R` — result for “normalised enrichment score”: 1.62.
Under “normalised enrichment score”, `T11D` is recorded as 0.798.
Under “normalised enrichment score”, `R5S` is recorded as 0.0734.
`V3P`: “normalised enrichment score” 1.1.
Under “normalised enrichment score”, `R6I` is recorded as 0.833.
`K4N` — result for “normalised enrichment score”: -0.257.
`D12Q` — result for “normalised enrichment score”: 2.47.
Under “normalised enrichment score”, `H13K` is recorded as 2.01.
`P2T`: “normalised enrichment score” 1.09.
Under “normalised enrichment score”, `K4Q` is recorded as 0.53.
Under “normalised enrichment score”, `K4A` is recorded as 0.932.
`L7N`: “normalised enrichment score” -0.166.

Block 3 — method: universal PBM; form: double-stranded DNA, one strand shown; medium: in vitro; tested at: 600 nM; reading: higher = stronger binding
Target: Sal-like protein 4, full length isoform A (SALL4, Homo sapiens, UniProt Q9UJQ4, residues 1-1053)
Sequence of UniProt Q9UJQ4 (whole entry, looked up): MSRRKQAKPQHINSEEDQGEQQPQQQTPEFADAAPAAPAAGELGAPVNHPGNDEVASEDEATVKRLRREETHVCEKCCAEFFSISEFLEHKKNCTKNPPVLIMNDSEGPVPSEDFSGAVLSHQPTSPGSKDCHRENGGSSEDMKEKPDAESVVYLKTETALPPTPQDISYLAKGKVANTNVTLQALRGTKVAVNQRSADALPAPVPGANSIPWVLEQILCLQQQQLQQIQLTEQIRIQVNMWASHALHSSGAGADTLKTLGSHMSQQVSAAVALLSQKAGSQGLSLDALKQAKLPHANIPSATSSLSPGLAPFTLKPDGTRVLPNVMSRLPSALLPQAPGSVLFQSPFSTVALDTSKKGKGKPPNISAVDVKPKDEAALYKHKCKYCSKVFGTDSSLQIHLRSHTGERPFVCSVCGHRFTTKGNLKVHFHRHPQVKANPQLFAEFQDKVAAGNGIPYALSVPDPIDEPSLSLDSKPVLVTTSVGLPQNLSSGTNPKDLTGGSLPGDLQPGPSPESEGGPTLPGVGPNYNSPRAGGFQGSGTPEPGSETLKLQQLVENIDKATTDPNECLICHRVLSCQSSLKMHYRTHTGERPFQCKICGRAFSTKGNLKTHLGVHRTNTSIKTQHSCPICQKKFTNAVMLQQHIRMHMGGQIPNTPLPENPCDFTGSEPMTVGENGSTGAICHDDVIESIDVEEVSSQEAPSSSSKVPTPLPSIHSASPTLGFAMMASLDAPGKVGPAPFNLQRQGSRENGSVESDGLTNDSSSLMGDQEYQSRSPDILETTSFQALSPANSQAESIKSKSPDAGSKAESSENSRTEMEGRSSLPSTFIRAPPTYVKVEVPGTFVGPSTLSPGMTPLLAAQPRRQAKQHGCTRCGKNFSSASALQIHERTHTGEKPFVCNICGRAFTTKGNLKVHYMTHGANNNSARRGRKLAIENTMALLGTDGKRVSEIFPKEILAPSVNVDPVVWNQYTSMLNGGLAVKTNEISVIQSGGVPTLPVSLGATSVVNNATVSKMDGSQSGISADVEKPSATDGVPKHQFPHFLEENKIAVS
Setting: 8-mer, flanks averaged, mean of replicates
`GAATCATA` gave an E-score of 0.325.
For `AGTTCGAT`, the E-score was 0.138.
For `GCAAATGC`, the E-score was -0.11.
The E-score of `CGGGAACC` is reported as -0.327.
`CATGTGAA` gave an E-score of 0.00178.
With `CGCAGATC` the E-score was -0.277.
`CTAGAGAA` has an E-score of 0.0536.
For `CTGGGCTA`, the E-score was -0.347.
With `TCTACGAA` the E-score was 0.0396.
`GCGACATA` gave an E-score of 0.0999.
The E-score of `CTGGAAAC` is reported as 0.0914.
`TTACGCAA` gave an E-score of 0.185.
The E-score of `GTTATAAA` is reported as 0.384.
With `GGTAGTTA` the E-score was 0.0134.
`GTGGGCGA` has an E-score of -0.154.
`AAACGCGT` has an E-score of 0.00158.
The E-score of `CAATAGCA` is reported as 0.0728.
For `AGAGCCTA`, the E-score was -0.0772.
`CTTAGACC` gave an E-score of 0.0211.
The E-score of `AGCGACCA` is reported as -0.0875.
`CATCGGTA` gave an E-score of 0.0593.
For `ACACGCCT`, the E-score was 0.0232.
The E-score of `CGTTTGCA` is reported as 0.0854.
With `CCGCTCTA` the E-score was 0.0932.
For `CAGTATGC`, the E-score was -0.0576.

Block 4 — method: competition protein-binding microarray; form: double-stranded DNA, one strand shown; medium: in vitro; tested at: 2 µM; with: Cbf1 competitor, 0.05 µM; reading: higher = stronger binding
Target: Phosphate system positive regulatory protein PHO4, full length, GST-tagged (PHO4, Saccharomyces cerevisiae, UniProt P07270, residues 1-312)
Setting: whole 60-bp probe, lowest competitor level
Residues (chain): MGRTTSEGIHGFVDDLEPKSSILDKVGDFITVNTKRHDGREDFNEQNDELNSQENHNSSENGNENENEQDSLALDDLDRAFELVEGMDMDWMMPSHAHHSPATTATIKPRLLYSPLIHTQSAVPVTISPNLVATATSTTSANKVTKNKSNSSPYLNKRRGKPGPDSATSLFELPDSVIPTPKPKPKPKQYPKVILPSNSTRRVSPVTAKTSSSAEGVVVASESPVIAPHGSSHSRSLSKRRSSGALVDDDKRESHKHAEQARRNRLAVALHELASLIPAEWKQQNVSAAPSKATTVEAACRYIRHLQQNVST
`TGCGCAACAACTTGGATGGTGGGTGTATGTCTAGAAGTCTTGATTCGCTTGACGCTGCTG` gave a fluorescence intensity of 5050 a.u.
With `AAGTACGTCCTCTTGGCCGTGATGGCTGTTGTATTTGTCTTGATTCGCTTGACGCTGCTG` the fluorescence intensity was 3590 a.u.
`CAACAAATAGTAGCTCGCGTGGCCGAATGGCAACGCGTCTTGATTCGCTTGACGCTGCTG` has a fluorescence intensity of 7020 a.u.
`AAAGCGGTAATTTCCCACGTGTTTTCACATATCTATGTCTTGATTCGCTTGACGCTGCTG` gave a fluorescence intensity of 19500 a.u.
The fluorescence intensity of `AACTCTTTTGAAAATTACGTGCCAGAAAACCCAACCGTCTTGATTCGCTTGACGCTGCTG` is reported as 5220 a.u.
`GTTCTGGTGGTGGTTACCGTGCCAGGTTGTCTGGTGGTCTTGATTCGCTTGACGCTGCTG` gave a fluorescence intensity of 5220 a.u.
The fluorescence intensity of `GTCTTGTCTCATTGTGCCGTGGGTGTCCCCACTTCAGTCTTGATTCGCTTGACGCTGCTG` is reported as 6300 a.u.
With `CGCCCCCCAGCTCGGCACGCTGGTCAACACAGGCTGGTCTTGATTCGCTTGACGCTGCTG` the fluorescence intensity was 5830 a.u.
The fluorescence intensity of `TGAATTACTTCGCCCAACGTGTTGATGGCATGGGCAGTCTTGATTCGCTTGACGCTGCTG` is reported as 11600 a.u.
With `CGTCCTAGTGATTGGACAGTGGGTGCCATGAGGAAGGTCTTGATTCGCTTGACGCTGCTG` the fluorescence intensity was 5770 a.u.
The fluorescence intensity of `CTTTCCCGATCTTTCCACGTGTTTTTAGCACATTTGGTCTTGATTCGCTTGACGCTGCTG` is reported as 17800 a.u.
`GACCTAAGTCAGTCAAATTGTACTATCCCTGATCCTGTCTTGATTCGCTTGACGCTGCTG` gave a fluorescence intensity of 2580 a.u.
For `CTTCTGTAAATTTGTCACATGACTTGACGCGCCCCGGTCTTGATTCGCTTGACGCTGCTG`, the fluorescence intensity was 6010 a.u.
For `ATAAGCTTTTAGAAACACGTGATGGAAGAACCAGAGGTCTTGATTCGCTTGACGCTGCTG`, the fluorescence intensity was 16600 a.u.
The fluorescence intensity of `CGTCCTAGTGATTTTCACGTGCTGTCCATGAGGAAGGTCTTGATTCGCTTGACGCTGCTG` is reported as 17000 a.u.
For `TTACCGACGAGGCTTACCGTGATTGCTCTCCAGTAGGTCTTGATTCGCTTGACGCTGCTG`, the fluorescence intensity was 3750 a.u.
`AACCAGCATTATTTGCACGCAAGGCCCATTGAAAAGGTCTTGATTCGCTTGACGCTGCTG` has a fluorescence intensity of 5720 a.u.
`CGGGGTTAAGTTTGGCAAGTGGGTGGCTTGCAGCAGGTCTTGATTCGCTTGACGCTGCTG` has a fluorescence intensity of 4740 a.u.
With `AAAGCGGTAATTTTGCACGTGTTTTCACATATCTATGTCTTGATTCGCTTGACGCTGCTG` the fluorescence intensity was 20500 a.u.

Block 5 — method: RNA Bind-n-Seq; form: RNA; medium: in vitro; tested at: 200 nM; setting: whole 134-nt RNA, ends assumed; with: 150 mM KCl; relative to: input library; reading: higher = stronger binding
Target: Ras GTPase-activating protein-binding protein 1, full length (G3BP1, Homo sapiens, UniProt Q13283)
Sequence of UniProt Q13283 (whole entry, looked up): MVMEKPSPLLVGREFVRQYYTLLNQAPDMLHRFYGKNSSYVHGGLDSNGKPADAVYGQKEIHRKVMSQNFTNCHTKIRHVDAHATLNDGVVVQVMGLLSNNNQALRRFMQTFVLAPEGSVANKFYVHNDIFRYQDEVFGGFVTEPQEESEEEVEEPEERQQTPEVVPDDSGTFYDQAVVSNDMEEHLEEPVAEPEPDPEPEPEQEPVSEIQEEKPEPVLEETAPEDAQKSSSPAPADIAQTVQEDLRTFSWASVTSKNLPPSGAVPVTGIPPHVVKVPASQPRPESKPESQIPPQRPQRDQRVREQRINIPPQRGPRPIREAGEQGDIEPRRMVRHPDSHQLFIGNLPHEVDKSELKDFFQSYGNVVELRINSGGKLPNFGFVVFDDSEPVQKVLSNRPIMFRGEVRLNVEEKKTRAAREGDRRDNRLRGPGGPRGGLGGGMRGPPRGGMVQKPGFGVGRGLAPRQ
For `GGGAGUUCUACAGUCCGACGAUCUCAAGUCCUGUGCUACACAUCGUAUGUACCGAAUCGGGGAAGGGAAGGAAGGGGAAAGUAUUAUGUUACGCCGUUCGGAUCUGCACUUCCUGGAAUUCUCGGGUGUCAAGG`, the log2 enrichment was 0.749.
For `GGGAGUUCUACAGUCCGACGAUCCCUGUGCUACACAUCGUAUGUACCGAAUCGGGGUUUUUUUGGGGAGGGGUUUUUUUGGGGAAAGUAUUAUGUUACGCCGUUCGGAUCUGCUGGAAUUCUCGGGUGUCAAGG`, the log2 enrichment was 0.0876.
For `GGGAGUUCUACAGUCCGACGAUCCUCAAGUCCUGUGCUACACAUCGUAUGUACCGAAUCGGCGGGGCGGGGCGGGGAAAGUAUUAUGUUACGCCGUUCGGAUCUGCACUUCCAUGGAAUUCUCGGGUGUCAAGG`, the log2 enrichment was 1.05.
`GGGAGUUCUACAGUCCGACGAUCAAGUCCUGUGCUACACAUCGUAUGUACCGAAUCGGAAAGGUUUUUGGUUUUUUUGGAAAGUAUUAUGUUACGCCGUUCGGAUCUGCACUUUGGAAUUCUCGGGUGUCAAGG` gave a log2 enrichment of -1.45.
`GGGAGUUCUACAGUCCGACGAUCUCAAGUCCUGUGCUACACAUCGUAUGUACCGAAUCGGUUUGGAGGAAAAAAAGGAAAGUAUUAUGUUACGCCGUUCGGAUCUGCACUUCCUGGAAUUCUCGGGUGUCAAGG` gave a log2 enrichment of -0.624.
For `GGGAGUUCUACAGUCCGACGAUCAAGUCCUGUGCUACACAUCGUAUGUACCGAAUCGGGGUUUGGGUUUGGGGUUUGGGAAAGUAUUAUGUUACGCCGUUCGGAUCUGCACUUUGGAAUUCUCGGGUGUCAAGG`, the log2 enrichment was 0.269.
For `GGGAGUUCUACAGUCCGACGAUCUAACUUUAGAGGAGGAUCUGAUGGAUAUGGCAGUGGACGUGGAUUUUGGGAUGGCUAUAAUGGGUAUGGAGGAGGACCUGGAGGUGGCAAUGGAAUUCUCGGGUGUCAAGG`, the log2 enrichment was 0.338.
With `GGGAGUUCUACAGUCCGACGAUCUCAAGUCCUGUGCUACACAUCGUAUGUACCGAAUCGGGUUUUUGGGUGGGAGGGAAAGUAUUAUGUUACGCCGUUCGGAUCUGCACUUCCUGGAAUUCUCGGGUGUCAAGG` the log2 enrichment was 0.678.
For `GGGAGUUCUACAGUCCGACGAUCAGUCCUGUGCUACACAUCGUAUGUACCGAAUCGGGGUUUGGGGUGGGGAAAAAGGGGAAAGUAUUAUGUUACGCCGUUCGGAUCUGCACUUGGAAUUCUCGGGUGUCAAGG`, the log2 enrichment was 0.21.

Repeated from above (block 2):
Under “normalised enrichment score”, `K4Q` is recorded as 0.53.
`D12Q` — result for “normalised enrichment score”: 2.47.
`K4N` — result for “normalised enrichment score”: -0.257.
Under “normalised enrichment score”, `T11D` is recorded as 0.798.
Under “normalised enrichment score”, `K4A` is recorded as 0.932.
Under “normalised enrichment score”, `R6I` is recorded as 0.833.
`D12R` — result for “normalised enrichment score”: 1.62.
Under “normalised enrichment score”, `V3S` is recorded as 0.565.
`L7N`: “normalised enrichment score” -0.166.
`E10C` — result for “normalised enrichment score”: 1.82.
Under “normalised enrichment score”, `R5S` is recorded as 0.0734.
Under “normalised enrichment score”, `H13K` is recorded as 2.01.
